# Measurements from different studies.
# Protocols differ between the studies behind these lines. ± marks the error that the study gave.
# Cell line: MCF7
Structure (SMILES),test,setting,IC50
C/C(=N\N=C1/NC(=O)CS1)c1c(O)c2ccccc2oc1=O,"cell growth or viability, MTT",48 h,26.3 µM
CC(C)=CCC1=C([O-])C(=O)c2ccccc2C1=O.CC(C)=CCC1=C([O-])C(=O)c2ccccc2C1=O.[Cu+2].c1ccc(-c2ccnc3c2ccc2c(-c4ccccc4)ccnc23)cc1,"cell viability, MTT",24 h,0.9 ± 0.3 µM
COc1cc2c(cc1-c1coc3c(CC=C(C)C)c(OC)c(OC)cc3c1=O)OCO2,"cell growth or viability, MTT",72 h,19.6 µM
CSc1nc(Nc2ccc(/C(C)=N/NC(=O)c3ccc([N+](=O)[O-])cc3[N+](=O)[O-])cc2)c(C#N)c(-c2ccccc2)n1,"cell growth or viability, MTT",48 h,1.54 µM
COc1ccc2cc3[n+](cc2c1OCc1cn(Cc2ccc([N+](=O)[O-])cc2)nn1)CCc1cc2c(cc1-3)OCO2,"cell growth or viability, MTT",,206 µM
CC(C)c1cccc(C(C)C)c1N1CCN(c2c(C(C)C)cccc2C(C)C)C1=[Se].[Cl][Ag],"cell growth or viability, MTT",72 h,6.7 µM
Cc1ccc(-c2nc(-c3cccnc3)[nH]c2-c2ccc(C)cc2)cc1,"cell growth or viability, SRB",24 h,> 100 µM
COc1cccc(Cn2cc(COc3c(OC)ccc4cc5[n+](cc34)CCc3cc4c(cc3-5)OCO4)nn2)c1,"cell growth or viability, MTT",,41.2 µM
COc1cccc2c1C(=O)c1c(O)c3c(c(O)c1C2=O)C[C@@](O)(C(=O)CO)C[C@@H]3O[C@H]1C[C@H](N)[C@H](O)[C@H](C)O1,"cell growth or viability, MTT",72 h,~0.3 µM
CCOC(=O)c1nn(-c2ccccc2)c2nc3nc(-c4ccccc4)cc(-c4ccc5ccccc5n4)c3c(=O)n12,"cell growth or viability, MTT",48 h,13.5 µM
CCCCCCCCCCCCCCCOC(=O)/C=C/c1ccc(OC)cc1,"cell viability, MTT","48 h, serum-free medium",2.9 ± 0.4 µg/mL
